Measured values pooled from the literature.
± marks the error that the study gave.
B1: INO80 1022-1294 (Saccharomyces cerevisiae, UniProt P53115); sequence looked up; chain VDSPFSFTTFGKTTSMLTASVANNNSSVISNSNMNLSSMSSNNISNGKFTDLIYSSRNPIKYSLPRLIYEDLILPNYNNDVDIANKLKNVKFNIFNPSTNYELCLFLSKLTGEPSLNEFFRVSTTPLLKRVIERTNGPKNTDSLSFKTITQELLEVTRNAPSEGVMASLLNVEKHAYEREYLNCIQRGYHPNVSAPPVTIEVLGSSHVTNSINNELFDPLISQALSDIPAITQYNMHVKKGIPVEDFPKTGLFPEPLNKNFSSNISMPSMDRF
B2: Tbx1 (Mus musculus, UniProt P70323); sequence looked up; chain MHFSTVTRDMEAFAASSLSGLGSPSPGADPFGPREPPPPRYDPCAAVPGAPGPPPPRAYPFAPAPGAAGSSAAESEGPGASRAAAVKAPVKKNPKVASVSVQLEMKALWDEFNQLGTEMIVTKAGRRMFPTFQVKLFGMDPMADYMLLMDFVPVDDKRYRYAFHSSSWLVAGKADPATPGRVHYHPDSPAKGAQWMKQIVSFDKLKLTNNLLDDNGQIILNSMHRYQPRFHVVYVDPRKDSEKYAEENFKTFVFEETRFTAVTAYQNHRITQLKIASNPFAKGFRDCDPEDWPRNHRPGALPLVSAFARSRNPVASPTQPNGSDKDAAEARREFDRDSGPAALGDATHPPQLLARVLSPALPGPGGLVPLPGGSGGRHSPPHADLRLEAPGASEPLHHHPYKYPAAAYDHYLGAKSRPAPYPLPGLRGHGYHPHAHPHAHPHHHHHPAVNPAAAAAAAAAANVYSSAAAPPGAYDYCPR
B3: merA 1-69 (Serratia marcescens, UniProt P08662); sequence looked up; chain MTHLKITGMTCDSCAAHVKEALEKVPGVQSAIVSYAKGAAQLALDPGTAPDALTAAVAGLGYKAMLADA
B4: MIF4GD R76A (Homo sapiens, UniProt A9UHW6); sequence looked up; chain MGEPSREEYKIQSFDAETQQLLKTALKDPGAVDLEKVANVIVDHSLQDCVFSKEAGRMCYAIIQAESKQAGQSVFARGLLNRLQQEYQAREQLRARSLQGWVCYVTFICNIFDYLRVNNMPMMALVNPVYDCLFRLAQPDSLSKEEEVDCLVLQLHRVGEQLEKMNGQRMDELFVLIRDGFLLPTGLSSLAQLLLLEIIEFRAAGWKTTPAAHKYYYSEVSD
B5: spy (Escherichia coli, UniProt P77754); chain MRKLTALFVASTLALGAANLAHAADTTTAAPADAKPMMHHKGKFGPHQDMMFKDLNLTDAQKQQIREIMKGQRDQMKRPPLEERRAMHDIIASDTFDKVKAEAQIAKMEEQRKANMLAHMETQNKIYNILTPEQKKQFNANFEKRLTERPAAKGKMPATAE
B6: cipA 183-322 (Clostridium thermocellum, UniProt Q06851); sequence looked up; chain GVVVEIGKVTGSVGTTVEIPVYFRGVPSKGIANCDFVFRYDPNVLEIIGIDPGDIIVDPNPTKSFDTAIYPDRKIIVFLFAEDSGTGAYAITKDGVFAKIRATVKSSAPGYITFDEVGGFADNDLVEQKVSFIDGGVNVG
B7: CSF1 33-496 (Homo sapiens, UniProt P09603); sequence looked up; chain EEVSEYCSHMIGSGHLQSLQRLIDSQMETSCQITFEFVDQEQLKDPVCYLKKAFLLVQDIMEDTMRFRDNTPNAIAIVQLQELSLRLKSCFTKDYEEHDKACVRTFYETPLQLLEKVKNVFNETKNLLDKDWNIFSKNCNNSFAECSSQDVVTKPDCNCLYPKAIPSSDPASVSPHQPLAPSMAPVAGLTWEDSEGTEGSSLLPGEQPLHTVDPGSAKQRPPRSTCQSFEPPETPVVKDSTIGGSPQPRPSVGAFNPGMEDILDSAMGTNWVPEEASGEASEIPVPQGTELSPSRPGGGSMQTEPARPSNFLSASSPLPASAKGQQPADVTGTALPRVGPVRPTGQDWNHTPQKTDHPSALLRDPPEPGSPRISSLRPQGLSNPSTLSAQPQLSRSHSSGSVLPLGELEGRRSTRDRRSPAEPEGGPASEGAARPLPRFNSVPLTDTGHERQSEGSFSPQLQES
Chain of UniProt P07333 (whole entry, looked up): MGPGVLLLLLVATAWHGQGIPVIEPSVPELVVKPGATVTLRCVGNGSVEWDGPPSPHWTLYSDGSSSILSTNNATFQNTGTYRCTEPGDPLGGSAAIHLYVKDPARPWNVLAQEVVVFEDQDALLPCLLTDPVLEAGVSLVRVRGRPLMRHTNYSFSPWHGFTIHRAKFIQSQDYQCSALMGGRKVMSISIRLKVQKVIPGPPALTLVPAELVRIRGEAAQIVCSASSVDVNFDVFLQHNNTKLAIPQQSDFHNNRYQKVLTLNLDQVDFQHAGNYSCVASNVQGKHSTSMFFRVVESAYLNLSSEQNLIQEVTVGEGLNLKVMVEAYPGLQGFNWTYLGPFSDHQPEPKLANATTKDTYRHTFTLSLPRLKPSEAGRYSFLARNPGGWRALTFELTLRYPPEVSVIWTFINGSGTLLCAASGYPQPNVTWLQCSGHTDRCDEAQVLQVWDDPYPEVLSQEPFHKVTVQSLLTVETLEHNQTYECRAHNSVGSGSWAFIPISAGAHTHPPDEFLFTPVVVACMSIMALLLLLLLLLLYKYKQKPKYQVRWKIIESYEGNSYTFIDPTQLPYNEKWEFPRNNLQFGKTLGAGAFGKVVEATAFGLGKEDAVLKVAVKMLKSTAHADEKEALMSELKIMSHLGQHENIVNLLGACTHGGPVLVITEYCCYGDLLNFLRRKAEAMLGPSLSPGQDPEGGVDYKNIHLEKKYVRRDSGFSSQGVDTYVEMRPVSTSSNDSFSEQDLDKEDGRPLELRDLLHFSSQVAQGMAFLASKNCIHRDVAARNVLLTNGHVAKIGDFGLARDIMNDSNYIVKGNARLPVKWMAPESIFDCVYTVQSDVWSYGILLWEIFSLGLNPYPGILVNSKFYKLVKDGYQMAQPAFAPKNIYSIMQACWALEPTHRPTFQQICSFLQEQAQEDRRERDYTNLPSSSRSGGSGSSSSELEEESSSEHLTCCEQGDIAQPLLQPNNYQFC
Chain of UniProt Q9Y2K7 (whole entry, unmodified, looked up): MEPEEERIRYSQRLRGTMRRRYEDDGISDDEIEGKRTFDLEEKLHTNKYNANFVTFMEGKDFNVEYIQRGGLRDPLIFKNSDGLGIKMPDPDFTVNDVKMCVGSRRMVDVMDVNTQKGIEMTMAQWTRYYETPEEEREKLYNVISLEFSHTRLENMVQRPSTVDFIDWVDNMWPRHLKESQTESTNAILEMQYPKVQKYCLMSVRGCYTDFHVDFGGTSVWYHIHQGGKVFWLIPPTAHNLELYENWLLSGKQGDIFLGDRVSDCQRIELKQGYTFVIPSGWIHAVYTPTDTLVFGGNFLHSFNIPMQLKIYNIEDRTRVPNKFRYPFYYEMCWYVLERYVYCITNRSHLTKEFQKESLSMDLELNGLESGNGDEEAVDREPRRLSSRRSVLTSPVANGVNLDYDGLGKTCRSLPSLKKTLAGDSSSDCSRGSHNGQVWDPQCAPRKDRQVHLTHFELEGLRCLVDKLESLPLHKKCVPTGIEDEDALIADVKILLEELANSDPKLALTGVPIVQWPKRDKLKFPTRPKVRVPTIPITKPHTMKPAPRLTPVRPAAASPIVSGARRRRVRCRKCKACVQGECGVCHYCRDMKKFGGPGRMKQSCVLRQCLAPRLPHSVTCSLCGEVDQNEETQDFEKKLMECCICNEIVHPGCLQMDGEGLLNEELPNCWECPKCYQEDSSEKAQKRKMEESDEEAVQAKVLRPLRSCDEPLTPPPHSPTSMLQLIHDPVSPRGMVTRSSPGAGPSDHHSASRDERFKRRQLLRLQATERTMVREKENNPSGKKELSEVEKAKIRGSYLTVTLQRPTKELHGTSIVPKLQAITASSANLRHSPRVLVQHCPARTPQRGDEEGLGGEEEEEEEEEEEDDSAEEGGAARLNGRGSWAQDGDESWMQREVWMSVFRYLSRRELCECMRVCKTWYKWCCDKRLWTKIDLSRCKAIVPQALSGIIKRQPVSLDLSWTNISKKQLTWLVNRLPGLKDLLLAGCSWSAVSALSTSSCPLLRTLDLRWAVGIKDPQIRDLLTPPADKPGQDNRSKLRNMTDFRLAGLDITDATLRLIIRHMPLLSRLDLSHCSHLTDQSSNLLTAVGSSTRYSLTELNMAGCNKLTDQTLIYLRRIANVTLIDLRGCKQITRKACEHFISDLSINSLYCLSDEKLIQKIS
Chain of UniProt P05813 (whole entry, looked up): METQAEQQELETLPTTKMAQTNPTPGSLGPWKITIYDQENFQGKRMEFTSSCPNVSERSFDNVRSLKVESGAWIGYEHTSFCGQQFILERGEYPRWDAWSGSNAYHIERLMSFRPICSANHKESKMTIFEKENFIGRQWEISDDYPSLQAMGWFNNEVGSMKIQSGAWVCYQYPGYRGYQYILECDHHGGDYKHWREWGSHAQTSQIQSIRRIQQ
Chain of UniProt Q62120 (whole entry, looked up): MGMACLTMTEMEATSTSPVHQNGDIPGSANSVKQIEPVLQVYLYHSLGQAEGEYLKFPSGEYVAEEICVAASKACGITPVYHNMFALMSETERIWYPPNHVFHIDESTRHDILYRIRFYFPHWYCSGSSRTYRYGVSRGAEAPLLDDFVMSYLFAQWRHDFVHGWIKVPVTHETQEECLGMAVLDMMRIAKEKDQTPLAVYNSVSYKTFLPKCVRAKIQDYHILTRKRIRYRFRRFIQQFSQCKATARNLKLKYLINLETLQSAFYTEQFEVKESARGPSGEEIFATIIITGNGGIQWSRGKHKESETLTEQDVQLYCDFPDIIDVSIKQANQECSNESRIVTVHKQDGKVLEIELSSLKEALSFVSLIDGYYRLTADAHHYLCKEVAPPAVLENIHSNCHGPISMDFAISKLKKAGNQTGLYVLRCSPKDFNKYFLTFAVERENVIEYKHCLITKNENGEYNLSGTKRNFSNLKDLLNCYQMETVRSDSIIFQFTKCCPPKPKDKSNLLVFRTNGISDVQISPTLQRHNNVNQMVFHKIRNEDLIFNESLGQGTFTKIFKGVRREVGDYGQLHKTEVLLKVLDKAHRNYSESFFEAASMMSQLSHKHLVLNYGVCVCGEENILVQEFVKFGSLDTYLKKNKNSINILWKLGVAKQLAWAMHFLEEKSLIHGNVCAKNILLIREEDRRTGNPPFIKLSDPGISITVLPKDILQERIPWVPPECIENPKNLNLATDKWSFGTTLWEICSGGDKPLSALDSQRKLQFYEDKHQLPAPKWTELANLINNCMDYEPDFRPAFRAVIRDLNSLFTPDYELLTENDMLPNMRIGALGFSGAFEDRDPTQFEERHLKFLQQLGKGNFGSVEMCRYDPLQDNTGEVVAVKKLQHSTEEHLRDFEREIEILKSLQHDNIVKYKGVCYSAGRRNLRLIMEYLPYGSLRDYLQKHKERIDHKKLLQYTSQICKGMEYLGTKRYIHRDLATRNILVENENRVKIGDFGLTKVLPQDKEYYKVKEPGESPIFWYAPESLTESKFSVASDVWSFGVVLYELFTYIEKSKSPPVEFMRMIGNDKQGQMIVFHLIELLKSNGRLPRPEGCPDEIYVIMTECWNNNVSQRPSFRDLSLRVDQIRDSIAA
Chain of UniProt P14780 (whole entry, unmodified, looked up): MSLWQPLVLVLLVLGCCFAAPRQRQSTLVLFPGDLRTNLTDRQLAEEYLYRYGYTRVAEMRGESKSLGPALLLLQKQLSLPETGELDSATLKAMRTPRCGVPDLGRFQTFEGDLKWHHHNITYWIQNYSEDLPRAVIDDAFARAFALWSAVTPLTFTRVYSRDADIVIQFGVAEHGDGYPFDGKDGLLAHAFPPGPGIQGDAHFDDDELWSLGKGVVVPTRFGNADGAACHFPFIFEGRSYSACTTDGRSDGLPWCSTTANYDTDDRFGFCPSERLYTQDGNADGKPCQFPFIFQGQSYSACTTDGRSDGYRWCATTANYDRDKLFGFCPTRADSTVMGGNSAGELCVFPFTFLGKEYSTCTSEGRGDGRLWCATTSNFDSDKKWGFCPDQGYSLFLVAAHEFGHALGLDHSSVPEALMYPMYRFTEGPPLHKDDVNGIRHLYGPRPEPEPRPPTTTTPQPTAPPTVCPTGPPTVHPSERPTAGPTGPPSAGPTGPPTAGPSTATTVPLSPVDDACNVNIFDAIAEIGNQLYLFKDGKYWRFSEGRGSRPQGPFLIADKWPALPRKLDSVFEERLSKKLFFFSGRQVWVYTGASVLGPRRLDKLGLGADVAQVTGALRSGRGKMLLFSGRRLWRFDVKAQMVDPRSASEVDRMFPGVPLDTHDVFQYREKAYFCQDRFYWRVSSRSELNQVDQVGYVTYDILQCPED
Chain of UniProt A3DH67 (whole entry, looked up): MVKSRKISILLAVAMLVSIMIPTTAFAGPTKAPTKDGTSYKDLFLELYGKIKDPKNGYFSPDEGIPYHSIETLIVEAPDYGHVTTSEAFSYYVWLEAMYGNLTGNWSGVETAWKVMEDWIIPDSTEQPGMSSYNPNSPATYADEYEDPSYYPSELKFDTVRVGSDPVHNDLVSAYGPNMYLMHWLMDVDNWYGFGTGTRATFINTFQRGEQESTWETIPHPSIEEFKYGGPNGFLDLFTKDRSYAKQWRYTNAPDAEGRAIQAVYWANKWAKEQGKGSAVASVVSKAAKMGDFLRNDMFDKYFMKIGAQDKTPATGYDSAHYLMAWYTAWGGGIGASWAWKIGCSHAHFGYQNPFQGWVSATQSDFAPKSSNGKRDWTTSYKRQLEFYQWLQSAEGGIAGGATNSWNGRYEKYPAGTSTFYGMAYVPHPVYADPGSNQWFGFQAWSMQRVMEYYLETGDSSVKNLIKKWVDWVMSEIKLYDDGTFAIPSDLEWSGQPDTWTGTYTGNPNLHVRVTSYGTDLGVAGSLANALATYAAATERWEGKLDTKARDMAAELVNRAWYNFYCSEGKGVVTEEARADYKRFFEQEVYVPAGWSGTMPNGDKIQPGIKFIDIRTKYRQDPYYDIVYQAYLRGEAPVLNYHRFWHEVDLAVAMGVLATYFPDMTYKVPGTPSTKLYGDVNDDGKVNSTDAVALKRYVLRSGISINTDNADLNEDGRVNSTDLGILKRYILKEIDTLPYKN

With `gcvH fragment, N6-(6-mercapto-octanoyl)-lysine` the intermediate equivalents was 0.6 equiv (lipA (Escherichia coli, UniProt P60716); SEC; 30 min, with: SAM 180 µM).
`FBXO5 fragment R322A/L325A (Homo sapiens)` gave a Ki of 0.81 ± 0.23 µM (APC/C/CDH1 (Homo sapiens); ubiquitination assay).
`SERPINC1 R45E/R46E/K114E/R129E (Homo sapiens)` gave a k2 of 3700 M⁻¹ s⁻¹ (coagulation factor Xa (UniProt P00742); steady-state kinetics; room temperature, with: pentasaccharide H5).
`AVVRPGSLDLP (SH3BP5 residues 340-350 (Homo sapiens))` gave an IC50 of 1020 ± 75 µM (MAPK10 JNK3α1, pT221/pY223 (Homo sapiens, UniProt P53779-2); displacement of labelled peptide, competitor, FRET; peptide; pH 7.4, NaCl 150 mM).
`CRYBB1 fragment (Homo sapiens)` — result for “subunit exchange rate”: 0.0199 ± 0.0043 min⁻¹ (CRYBA1, Alexa Fluor 488 label (Homo sapiens, UniProt P05813); FRET; pH 7.5, 37 °C, 100 mM NaCl).
With `B1 (INO80 1022-1294)` the relative kcat was 16 fold (Rvb1/Rvb2 (Saccharomyces cerevisiae); NADH-coupled assay; baseline: Rvb1/Rvb2 alone, higher = faster ATP hydrolysis).
`MAPT S262E (Homo sapiens)` — result for “EB1 comet intensity”: 71 a.u. (MAPRE1 (Homo sapiens, UniProt Q15691); TIRF microscopy; 75 nM; higher = more EB1 at ends).
`KPPRPG (PTK2 residues 706-711 (Homo sapiens))` — result for “PtdIns 3-kinase activity”: 2.5 fold (PIK3R1 (Homo sapiens, UniProt P27986); lipid kinase activity; peptide, immunopurified enzyme; 0.1-100 µM; baseline: no peptide, higher = more activity).
With `B2 (Tbx1)` the reporter activation was 12 fold activation (PITX2 1-271 (Homo sapiens, UniProt Q99697-3); LEF-1 promoter luciferase; LS-8; with: PITX2A; higher = more activation).
The koff of `B3 (merA 1-69)` is reported as 144 s⁻¹ (MerB 1-212, Hg(II) bound Cys96/Cys159 (Serratia marcescens, UniProt P77072); stopped-flow fluorescence).
For `RCVRLHESCLGQQVPCCDPCATCYCRFFNAFCYCRKLGTAMNPCSRT (AGRP 86-132 (Homo sapiens, UniProt O00253); sequence looked up)`, “inverse agonist EC50” read 0.017 µM (MC4R D189Q (Homo sapiens, UniProt P32245); cAMP, inverse agonist, AlphaScreen; HEK293; apparent).
`CIKVAVS` gave an inhibition of 0% (peptide, human polyclonal IgM RF MCC; concentration not given, 5 µg/mL mAb II-481 coated, with: RF at 50% max binding concentration).
`calmodulin isoform sCaM-4 (Glycine max, UniProt Q39890)` has an EC50 of 0.038 µM (calcineurin (Homo sapiens, UniProt Q08209); CaN dephosphorylation of MUF-P, activator; 20 °C, used as Ka).
`GABBR1 GABAB1b isoform, full length E309K (Homo sapiens)`: “cell surface expression” 107% (GABBR2 (Homo sapiens, UniProt O75899); anti-Flag M1 on intact cells; baseline: WT/WT heterodimer, higher = more surface expression).
For `CGA/LHB (Equus caballus)`, the EC50 was 0.708 µg/mL (LHCGR L469R (eel); cAMP response, agonist, HTRF; CHO-K1; 30 min, room temperature).
`BicD coiled-coil domain 1 (Drosophila melanogaster)` gave a speed of 0.4 µm/s (DYNC1H1/DYNC1I2/DYNC1LI2/DYNLT1/DYNLRB1/DYNLL1 (Homo sapiens); single-molecule TIRF).
Under “PLA puncta frequency decrease”, `Neo1 S1314A/F1315A (Mus musculus)` is recorded as 2.6 fold (Cyfip1 (Mus musculus, UniProt Q7TMB8-1); proximity ligation; mouse hippocampal neurons; baseline: wild-type Neo, higher = greater decrease).
For `TIMP2 N-terminal domain S4E/V6R/V18M/I35V/N38Q/S68N/V71N/H97R`, the Ki was 0.00243 µM (MMP9 catalytic domain, no fibronectin 107-215 (Homo sapiens, UniProt P14780); fluorogenic substrate cleavage, inhibitor, enzyme inhibition assay; apparent).
With `B4 (MIF4GD R76A)` the koff was 0.000549 s⁻¹ (SLBP, phosphorylated, multiple sites (Homo sapiens, UniProt Q14493); SPR; pH 7.4, 25 °C, NaCl 150 mM).
With `histone H3 peptide P38A, K36me2` the demethylation was 7 fold reduction (KDM2A 36-517 del365-449 (UniProt Q9Y2K7); demethylation; baseline: wild-type H3K36me2 peptide, higher = less demethylation).
For `RASA1 minimal catalytic domain`, “GTP hydrolysis rate” read 0.00206 s⁻¹ (HRAS 1-166 (Homo sapiens, UniProt P01112); GAP-mediated GTP hydrolysis; 25 °C).
For `DIIRNIARHLAQVGDSMDRS (BID BH3 peptide, 20-mer (Homo sapiens))`, the ΔH was -6.45 kcal/mol (BCL2L1 1-200 (Homo sapiens, UniProt Q07817-1); ITC; peptide; one-site fit).
`CAND1, FlAsH label (UniProt Q86VP6)` has a dissociation half-life of 4 min (CUL2/RBX1, AMCA label on C-terminal tag (Homo sapiens); FRET or BRET; 100 nM, neddylated, with: VBC 200 nM; neddylation mix).
`B5 (spy)`: “binding improvement by signal peptide” 20 fold (SecA/SecY/SecE/SecG (Escherichia coli); co-sedimentation; baseline: mature domain, higher = stronger binding).
`B6 (cipA 183-322)` — result for “molecule per partner”: 0.924 ± 0.002 (celS dockerin module 673-739, 15N label (Clostridium thermocellum, UniProt A3DH67); ITC; pH 7.5, 298 K, KCl 100 mM, single-site model, with: CaCl2 5 mM).
For `collagen I (Bos taurus, UniProt P02453)`, “DDR1 ectodomain shedding” read 75% (DDR1 R105A (Homo sapiens, UniProt Q08345-2); blot; HEK293; 24 h; baseline: WT, lower = less shedding).
`B7 (CSF1 33-496)` gave a koff of 0.031 s⁻¹ (CSF1R Fc fusion D1-D5 20-512 (Homo sapiens, UniProt P07333); SPR; pH 7.4, NaCl 0.15 M).
`SOCS3/ELOB/ELOC SOCS3 24-end (Mus musculus)` gave an IC50 increase of 10 fold (JAK2 JH1 836-1132, pY1007/pY1008 (Mus musculus, UniProt Q62120); JAK2 kinase inhibition; with: STAT5b Y+8 substrate; baseline: wild-type SOCS3, higher = weaker inhibition).
For `thyrotropin-releasing hormone, pyroGlu, C-terminal amide (Gallus gallus)`, the EC50 was 0.0003 µM (protein (Gallus gallus, UniProt O93603); cAMP/PKA signaling, CRE luciferase reporter, agonist; HEK 293).
`ANK2 fragment (Homo sapiens)` gave a kon of 140000 M⁻¹ s⁻¹ (SCN2A 1080-1203 E1111A, CK2 phosphorylated (UniProt P04775); SPR; pH 7.4, 25 °C, NaCl 150 mM).
For `UGT1A9 (Homo sapiens, UniProt O60656)`, the Vmax/Km was 91 µL/min/mg (COc1c(C)c2c(c(O)c1C/C=C(\C)CCC(=O)O)C(=O)OC2; steady-state kinetics; pH 7.4, 37 °C).
`SGVPDRF` has an inhibition of 90% (peptide, human polyclonal IgM RF SOR; concentration not given, 5 µg/mL mAb II-481 coated, with: RF at 50% max binding concentration).

For quick reference, copied from above:
`B6 (cipA 183-322)` — result for “molecule per partner”: 0.924 ± 0.002 (celS dockerin module 673-739, 15N label (Clostridium thermocellum, UniProt A3DH67); ITC; pH 7.5, 298 K, KCl 100 mM, single-site model, with: CaCl2 5 mM).
`B5 (spy)`: “binding improvement by signal peptide” 20 fold (SecA/SecY/SecE/SecG (Escherichia coli); co-sedimentation; baseline: mature domain, higher = stronger binding).
For `TIMP2 N-terminal domain S4E/V6R/V18M/I35V/N38Q/S68N/V71N/H97R`, the Ki was 0.00243 µM (MMP9 catalytic domain, no fibronectin 107-215 (Homo sapiens, UniProt P14780); fluorogenic substrate cleavage, inhibitor, enzyme inhibition assay; apparent).
